Experimental data of several laboratories.
A part holds a random share of what one study measured. Several values in a cell are separate wells, animals, samples, runs or records.
Sequence of UniProt Q13131 (whole entry, looked up): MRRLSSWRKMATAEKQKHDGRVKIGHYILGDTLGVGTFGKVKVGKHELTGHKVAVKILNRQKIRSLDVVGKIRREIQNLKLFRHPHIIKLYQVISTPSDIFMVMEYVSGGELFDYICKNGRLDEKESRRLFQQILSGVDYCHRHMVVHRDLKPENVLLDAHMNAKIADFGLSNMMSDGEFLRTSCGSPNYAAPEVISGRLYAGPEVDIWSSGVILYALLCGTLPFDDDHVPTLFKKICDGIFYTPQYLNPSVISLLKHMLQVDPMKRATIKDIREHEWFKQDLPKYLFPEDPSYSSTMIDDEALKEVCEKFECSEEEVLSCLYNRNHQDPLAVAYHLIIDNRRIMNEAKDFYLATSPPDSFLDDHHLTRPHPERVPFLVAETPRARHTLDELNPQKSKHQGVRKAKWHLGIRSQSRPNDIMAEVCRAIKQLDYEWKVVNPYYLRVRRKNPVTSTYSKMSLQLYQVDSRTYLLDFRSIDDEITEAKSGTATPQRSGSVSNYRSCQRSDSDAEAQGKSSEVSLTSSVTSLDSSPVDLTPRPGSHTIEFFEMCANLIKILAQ
Sequence of UniProt Q9UPE1 (whole entry, looked up): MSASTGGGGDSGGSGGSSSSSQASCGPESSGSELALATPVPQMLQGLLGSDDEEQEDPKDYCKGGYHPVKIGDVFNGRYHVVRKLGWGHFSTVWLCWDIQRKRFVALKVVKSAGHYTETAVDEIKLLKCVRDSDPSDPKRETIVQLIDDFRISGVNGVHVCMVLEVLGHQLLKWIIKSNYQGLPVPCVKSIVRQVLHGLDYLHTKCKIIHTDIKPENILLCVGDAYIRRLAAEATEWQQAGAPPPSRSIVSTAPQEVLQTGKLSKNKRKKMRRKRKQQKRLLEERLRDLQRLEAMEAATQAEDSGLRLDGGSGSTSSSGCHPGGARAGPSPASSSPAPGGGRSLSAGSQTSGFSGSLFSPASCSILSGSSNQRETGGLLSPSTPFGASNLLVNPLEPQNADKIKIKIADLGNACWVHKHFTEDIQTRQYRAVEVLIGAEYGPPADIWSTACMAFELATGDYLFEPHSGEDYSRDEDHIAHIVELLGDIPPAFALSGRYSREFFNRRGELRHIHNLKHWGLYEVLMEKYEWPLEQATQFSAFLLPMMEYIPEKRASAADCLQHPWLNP
Sequence of UniProt Q00535 (whole entry, looked up): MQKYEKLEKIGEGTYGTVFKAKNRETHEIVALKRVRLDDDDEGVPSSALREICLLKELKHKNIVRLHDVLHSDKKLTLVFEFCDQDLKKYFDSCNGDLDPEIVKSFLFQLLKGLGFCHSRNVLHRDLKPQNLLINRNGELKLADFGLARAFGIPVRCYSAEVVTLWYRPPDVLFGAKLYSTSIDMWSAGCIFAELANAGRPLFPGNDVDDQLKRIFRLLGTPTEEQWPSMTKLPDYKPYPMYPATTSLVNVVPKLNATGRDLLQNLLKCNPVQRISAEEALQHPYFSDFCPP
Sequence of UniProt Q6PHR2 (whole entry, looked up): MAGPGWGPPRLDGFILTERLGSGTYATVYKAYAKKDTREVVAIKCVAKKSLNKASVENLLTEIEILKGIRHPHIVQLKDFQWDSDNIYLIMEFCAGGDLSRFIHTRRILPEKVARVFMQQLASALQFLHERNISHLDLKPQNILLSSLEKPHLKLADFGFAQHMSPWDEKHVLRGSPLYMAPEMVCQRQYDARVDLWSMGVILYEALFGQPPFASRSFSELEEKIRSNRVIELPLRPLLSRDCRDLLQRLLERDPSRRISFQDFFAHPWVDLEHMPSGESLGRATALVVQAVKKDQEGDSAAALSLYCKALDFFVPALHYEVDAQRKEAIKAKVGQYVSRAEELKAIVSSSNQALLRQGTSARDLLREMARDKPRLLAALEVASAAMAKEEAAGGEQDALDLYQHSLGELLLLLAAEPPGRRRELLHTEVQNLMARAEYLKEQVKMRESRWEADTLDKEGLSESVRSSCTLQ

Series 1
Structure (SMILES): C[C@@H]1CN(c2ccc(-c3cc(C(=O)NCCOCCOCCOCCOCCOCCOCCNC(=O)/C=C/c4[nH]cc(C(=O)N[C@@H](CC(N)=O)c5ccc(F)c(Cl)c5)c4-c4ccc(Cl)cc4F)ccc3F)cc2NC(=O)c2ccc(F)cc2C(F)(F)F)C[C@H](C)N1C
Read-out: thermal unfolding
Method: differential scanning fluorimetry
Tested at: 5.5 µM
Direction: higher = more unfolded
DCAF1: DDB1- and CUL4-associated factor 1 (DCAF1, Homo sapiens, UniProt Q9Y4B6)
Sequence of UniProt Q9Y4B6 (whole entry, looked up): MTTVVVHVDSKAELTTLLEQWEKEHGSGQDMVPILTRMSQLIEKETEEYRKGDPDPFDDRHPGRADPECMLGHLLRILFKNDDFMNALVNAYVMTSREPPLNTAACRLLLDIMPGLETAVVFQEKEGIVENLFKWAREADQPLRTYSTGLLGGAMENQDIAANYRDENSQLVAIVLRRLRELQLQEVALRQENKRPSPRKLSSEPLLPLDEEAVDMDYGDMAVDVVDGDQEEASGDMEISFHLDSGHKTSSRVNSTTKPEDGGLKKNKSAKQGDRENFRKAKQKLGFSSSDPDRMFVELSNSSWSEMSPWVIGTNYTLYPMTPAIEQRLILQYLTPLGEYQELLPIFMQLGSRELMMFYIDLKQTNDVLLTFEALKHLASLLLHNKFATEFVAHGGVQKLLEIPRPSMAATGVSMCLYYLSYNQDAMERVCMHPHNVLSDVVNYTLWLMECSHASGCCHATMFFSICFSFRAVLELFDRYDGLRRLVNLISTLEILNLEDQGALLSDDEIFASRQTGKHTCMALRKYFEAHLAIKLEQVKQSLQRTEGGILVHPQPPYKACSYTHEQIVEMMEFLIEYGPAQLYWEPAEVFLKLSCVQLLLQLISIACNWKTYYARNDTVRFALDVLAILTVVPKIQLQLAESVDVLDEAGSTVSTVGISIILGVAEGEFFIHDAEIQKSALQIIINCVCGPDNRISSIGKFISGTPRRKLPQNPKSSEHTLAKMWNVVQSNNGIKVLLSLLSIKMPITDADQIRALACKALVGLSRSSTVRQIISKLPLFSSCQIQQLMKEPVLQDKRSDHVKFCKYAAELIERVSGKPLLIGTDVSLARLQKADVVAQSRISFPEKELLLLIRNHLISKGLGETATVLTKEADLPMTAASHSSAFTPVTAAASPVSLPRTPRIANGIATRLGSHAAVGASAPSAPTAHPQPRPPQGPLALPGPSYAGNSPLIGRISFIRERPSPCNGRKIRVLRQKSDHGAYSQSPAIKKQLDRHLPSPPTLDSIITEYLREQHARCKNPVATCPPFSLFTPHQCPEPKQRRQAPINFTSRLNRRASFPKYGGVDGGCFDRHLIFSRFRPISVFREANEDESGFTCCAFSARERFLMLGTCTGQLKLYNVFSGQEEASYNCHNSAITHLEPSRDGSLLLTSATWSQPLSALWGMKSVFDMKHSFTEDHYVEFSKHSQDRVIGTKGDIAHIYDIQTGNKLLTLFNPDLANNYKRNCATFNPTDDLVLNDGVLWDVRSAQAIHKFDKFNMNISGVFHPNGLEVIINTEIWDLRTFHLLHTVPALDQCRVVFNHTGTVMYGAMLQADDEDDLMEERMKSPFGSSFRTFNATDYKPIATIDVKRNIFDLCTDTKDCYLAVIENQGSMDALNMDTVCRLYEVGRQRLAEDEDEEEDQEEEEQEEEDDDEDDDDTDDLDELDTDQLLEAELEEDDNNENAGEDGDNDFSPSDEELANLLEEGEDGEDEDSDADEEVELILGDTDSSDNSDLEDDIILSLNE
WDR5 (Homo sapiens, UniProt P61964); 33.6 °C — “SYPRO Orange fluorescence”: 13800 a.u.
DCAF1; 51.6 °C — “SYPRO Orange fluorescence”: 19800 a.u.
DCAF1; 36.2 °C — “SYPRO Orange fluorescence”: 10400 a.u.
The “SYPRO Orange fluorescence” was 8560 a.u. (DCAF1; 30.6 °C).
For DCAF1; 50.8 °C: “SYPRO Orange fluorescence” read 18800 a.u.
It gave 31800 a.u. for “SYPRO Orange fluorescence” (DCAF1; 90.81 °C).
DCAF1; 25.6 °C — “SYPRO Orange fluorescence”: 7460 a.u.

Series 2
Structure (SMILES): NC/C(=C\F)COc1ccc(Cn2c(=S)[nH]c(=O)c3[nH]cnc32)cc1
Read-out: enzyme activity
MPO: Myeloperoxidase (MPO, Homo sapiens, UniProt P05164)
Sequence of UniProt P05164 (whole entry, looked up): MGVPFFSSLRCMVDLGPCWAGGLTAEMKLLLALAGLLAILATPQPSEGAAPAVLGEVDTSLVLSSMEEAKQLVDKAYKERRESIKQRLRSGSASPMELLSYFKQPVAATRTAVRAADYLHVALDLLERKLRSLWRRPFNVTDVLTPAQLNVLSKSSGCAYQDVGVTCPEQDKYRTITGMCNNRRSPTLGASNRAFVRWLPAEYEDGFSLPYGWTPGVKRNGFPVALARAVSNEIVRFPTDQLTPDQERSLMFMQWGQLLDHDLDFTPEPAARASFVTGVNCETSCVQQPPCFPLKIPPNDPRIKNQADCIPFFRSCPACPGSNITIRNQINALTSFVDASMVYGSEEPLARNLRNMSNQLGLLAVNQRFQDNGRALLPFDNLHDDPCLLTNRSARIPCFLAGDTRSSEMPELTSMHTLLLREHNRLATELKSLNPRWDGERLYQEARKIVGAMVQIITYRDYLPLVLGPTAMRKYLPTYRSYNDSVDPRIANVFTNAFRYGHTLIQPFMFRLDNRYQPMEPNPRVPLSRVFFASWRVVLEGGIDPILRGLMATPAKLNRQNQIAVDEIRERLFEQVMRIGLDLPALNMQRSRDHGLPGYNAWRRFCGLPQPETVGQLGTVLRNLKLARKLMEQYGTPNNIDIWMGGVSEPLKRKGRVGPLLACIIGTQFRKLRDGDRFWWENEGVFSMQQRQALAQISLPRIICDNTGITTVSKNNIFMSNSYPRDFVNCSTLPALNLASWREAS
AOC3: Amine oxidase [copper-containing] 3 (AOC3, Homo sapiens, UniProt Q16853)
Sequence of UniProt Q16853 (whole entry, looked up): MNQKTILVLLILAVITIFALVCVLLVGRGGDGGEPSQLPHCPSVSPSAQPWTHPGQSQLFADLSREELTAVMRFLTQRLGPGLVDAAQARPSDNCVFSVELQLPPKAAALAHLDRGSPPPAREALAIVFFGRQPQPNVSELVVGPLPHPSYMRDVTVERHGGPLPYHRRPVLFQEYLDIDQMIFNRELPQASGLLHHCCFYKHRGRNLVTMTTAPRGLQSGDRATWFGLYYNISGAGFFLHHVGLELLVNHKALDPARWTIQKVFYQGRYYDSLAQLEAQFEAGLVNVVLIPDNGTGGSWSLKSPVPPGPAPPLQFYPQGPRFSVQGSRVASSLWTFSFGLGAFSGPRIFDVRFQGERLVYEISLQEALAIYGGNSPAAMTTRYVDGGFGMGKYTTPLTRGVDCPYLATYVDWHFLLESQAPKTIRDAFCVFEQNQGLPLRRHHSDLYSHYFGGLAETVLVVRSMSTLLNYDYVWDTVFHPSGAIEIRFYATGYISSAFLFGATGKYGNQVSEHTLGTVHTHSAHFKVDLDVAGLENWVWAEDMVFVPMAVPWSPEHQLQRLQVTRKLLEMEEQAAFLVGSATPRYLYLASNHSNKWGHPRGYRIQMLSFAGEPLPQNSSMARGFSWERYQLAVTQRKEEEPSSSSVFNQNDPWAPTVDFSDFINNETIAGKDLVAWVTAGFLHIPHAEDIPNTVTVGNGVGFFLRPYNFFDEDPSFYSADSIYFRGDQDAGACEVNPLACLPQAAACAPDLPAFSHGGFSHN
The inhibition was -5.82% (MPO; inhibitor, fluorescence; 41.2 nM).
It gave 0.467% for inhibition (MPO; inhibitor, fluorescence; 0.1235 µM).
MPO; inhibitor, fluorescence; 3.333 µM — inhibition: 11.6%.
MPO; 0.4115 µM — inhibition: -3.44% and 6%.
The inhibition was 101% (AOC3; inhibitor, fluorescence; 1 µM).
The inhibition was 99.9% (AOC3; inhibitor, fluorescence; 0.3704 µM).
For AOC3; inhibitor, fluorescence; 10 µM: inhibition read 99.9%.

Series 3
Compound: CC[C@@]1(c2cccc(C(F)(F)F)c2)C2=C(Nc3n[nH]cc31)[C@H](F)C(C)(C)CC2=O (single isomer, unassigned)
Tested at: 1 µM
ERBB2 (Homo sapiens, UniProt P04626); binding, competition with immobilised ligand — remaining binding: 88%.
EGFR (Homo sapiens, UniProt P00533, del752-759); binding, competition with immobilised ligand — remaining binding: 73%.
IRAK4 (Homo sapiens, UniProt Q9NWZ3); binding, competition with immobilised ligand — remaining binding: 95%.
CDK5 (Homo sapiens, UniProt Q00535); kinase binding, KINOMEscan; reference: DMSO control — remaining binding: 100%.
PKN2 (Homo sapiens, UniProt Q16513); kinase binding, KINOMEscan; reference: DMSO control — remaining binding: 98%.
The remaining binding was 100% (FGFR3 (Homo sapiens, UniProt P22607); kinase binding, KINOMEscan; reference: DMSO control).
It gave 64% for remaining binding (MAPK10 (Homo sapiens, UniProt P53779); kinase binding, KINOMEscan; reference: DMSO control).
For FLT3 (Homo sapiens, UniProt P36888, N841I); kinase binding, KINOMEscan; reference: DMSO control: remaining binding read 100%.
For PRKAA1 (Homo sapiens, UniProt Q13131); binding, competition with immobilised ligand: remaining binding read 100%.
The remaining binding was 98% (DDR2 (Homo sapiens, UniProt Q16832); kinase binding, KINOMEscan; reference: DMSO control).
CDK16 (Homo sapiens, UniProt Q00536); kinase binding, KINOMEscan; reference: DMSO control — remaining binding: 99%.
For ULK3 (Homo sapiens, UniProt Q6PHR2); binding, competition with immobilised ligand: remaining binding read 69%.
The remaining binding was 100% (SRPK3 (Homo sapiens, UniProt Q9UPE1); kinase binding, KINOMEscan; reference: DMSO control).

Single results of other studies
VHL with Elongin B/C: von Hippel-Lindau disease tumor suppressor, with Elongin B/C (VHL, Homo sapiens, UniProt P40337)
The kon of `Cc1ncsc1-c1ccc(C(CO)NC(=O)C2CC(O)CN2C(=O)C(NC(=O)c2ccc(COc3c(-c4c(C)c(F)cc5[nH]ncc45)c(C4CC4)cc4c(N5CC6CC5CN6)nc(OC5CCOCC5)nc34)cc2)C(C)C)cc1` (stereo not shown) is reported as 140000 M⁻¹ s⁻¹ (VHL with Elongin B/C; SPR, single-cycle; immobilized VCB complex; binary, geometric mean).
With `Cc1ncsc1-c1ccc(C2(NC(=O)C3CC(O)CN3C(=O)C(NC(=O)c3ccc(COc4c(-c5c(C)c(F)cc6[nH]ncc56)c(C5CC5)cc5c(N6CC7CC6CN7)nc(OC6CCOCC6)nc45)cc3)C(C)(C)C)CC2)cc1` (stereo not shown) the IC50 was 853 nM (ASPC1; cell growth or viability, ATP luminescence).
For `Cc1ncsc1-c1ccc(C2(NC(=O)C3CC(O)CN3C(=O)C(NC(=O)c3ccc(COc4c(-c5c(C)c(F)cc6[nH]ncc56)c(C5CC5)cc5c(N6CC7CC6CN7)nc(OC6CCOCC6)nc45)cc3)C(C)C)CC2)cc1` (stereo not shown), the Kd was 714 nM (VHL with Elongin B/C; SPR, single-cycle; immobilized VCB complex; binary, geometric mean).
`Cc1ncsc1-c1ccc(C(CO)NC(=O)C2CC(O)CN2C(=O)C(C(C)C)n2cc(-c3ccc(COc4c(-c5c(C)c(F)cc6[nH]ncc56)c(C5CC5)cc5c(N6CC7CC6CN7)nc(OC6CCOCC6)nc45)cc3)nn2)cc1` (stereo not shown): “dissociation rate constant (kd)” 0.00312 s⁻¹ and 0.00361 s⁻¹ and 0.0036 s⁻¹ (GTPase KRas, GDP-bound (KRAS, Homo sapiens, UniProt P01116, G12D); binder, single-cycle SPR; binary, without VCB).

For quick reference, copied from above (series 2):
For AOC3; inhibitor, fluorescence; 10 µM: inhibition read 99.9%.
MPO; inhibitor, fluorescence; 3.333 µM — inhibition: 11.6%.
